Assay results of several laboratories.
Lines come from different studies, so protocols differ. Values joined by “and” are separate records of one study, mostly repeats; a detail may differ. ± gives the spread as reported.

SMILES | tested on | assay | test system | setting | how to read | quantity | value
CC[C@H](C)[C@H](NC(=O)[C@@H](NC(=O)[C@H](CCCCN)NC(=O)[C@H](CCC(N)=O)NC(=O)[C@@H](NC(=O)[C@H](Cc1c[nH]c2ccccc12)NC(=O)[C@H](CCCCN)NC(=O)[C@H](CCCCN)NC(=O)[C@H](CC(C)C)NC(=O)[C@H](CCCNC(=N)N)NC(=O)[C@H](CCCCN)NC(=O)[C@@H](N)C(C)C)[C@@H](C)CC)C(C)C)C(N)=O | sheep red blood cells | 10% haemolysis |  | 1 h, 37 °C |  | minimum haemolytic concentration | > 256 µM
COC(=O)/C=C/c1ccc(O)c(O)c1 | HaCaT | MTT |  | 24 h, 10% FBS |  | subcytotoxic concentration | 50 µM
CNC(=O)C[C@H](Cc1ccccc1)NC(=O)[C@@H](Cc1ccc(Cl)cc1Cl)NC(=O)[C@H](N)Cc1ccccc1C#N | Huh-7-ACE2 | CellTiter-Glo |  | 0.391 µM, 48 h, unit not given | reference: DMSO | viability | 1.09 and 1.04 and 1.05
CC[C@@H](C)[C@@H](NC(=O)[C@@H](Cc1c[nH]c2ccccc12)NC(=O)[C@@H](CCCCN)NC(=O)[C@@H](CC(C)C)NC(=O)[C@H](NC(=O)[C@H](NC(=O)CNC(=O)[C@@H](CCCCN)NC(=O)[C@@H](Cc1c[nH]cn1)NC(=O)[C@@H](CCCCN)NC(=O)[C@@H](Cc1c[nH]c2ccccc12)NC(=O)[C@@H](C)NC(=O)[C@@H](CC(C)C)NC(=O)[C@@H](CO)NC(=O)[C@H](NC(=O)[C@@H](Cc1ccc(O)cc1)NC(=O)[C@@H](CCCCN)NC(=O)[C@@H](CCC(N)=O)NC(=O)CNC(=O)[C@@H](CCCCN)NC(=O)[C@H](NC(=O)[C@@H](C)NC(=O)[C@@H](CC(C)C)NC(=O)[C@@H](Cc1ccccc1)NC(=O)[C@@H](CCC(N)=O)NC(=O)[C@H](NC(=O)[C@@H](CC(C)C)NC(=O)[C@@H](CCCCN)NC(=O)[C@@H](CCSC)NC(=O)[C@@H](Cc1ccccc1)NC(=O)[C@@H](C)NC(=O)[C@@H](C)NC(=O)[C@@H](CCSC)NC=O)[C@H](C)CC)[C@H](C)O)C(C)C)[C@H](C)O)[C@H](C)CC)C(=O)N[C@H](CC(N)=O)C(=O)N[C@H](C)C(=O)NCC(=O)N[C@H](CCC(N)=O)C(=O)N[C@H](CO)C(=O)N[C@H](Cc1ccccc1)C(=O)N[C@H](CCC(=O)O)C(=O)N[C@H](Cc1c[nH]c2ccccc12)C(=O)N[C@@H](C(=O)N[C@H](Cc1ccc(O)cc1)C(=O)N[C@H](CCCCN)C(=O)N[C@H](CCC(N)=O)C(=O)N[C@@H](C(=O)N[C@H](CCCCN)C(=O)N[C@H](CCCCN)C(=O)N[C@H](CC(C)C)C(=O)N[C@H](Cc1c[nH]c2ccccc12)C(=O)N[C@H](C)C(=O)O)[C@H](C)CC)[C@H](C)CC | human erythrocytes | hemolysis |  | pH 7.2 | reference: water complete hemolysis | HD50 | 600 µg/mL
CC[C@H](C)[C@H](NC(=O)[C@H](C)NC(=O)[C@H](CCCCN)NC(=O)[C@H](CCCCN)NC(=O)[C@@H](N)CCCNC(=N)N)C(=O)N[C@@H](CCCCN)C(=O)N[C@@H](CC(C)C)C(=O)N[C@H](C(=O)N[C@@H](CCCCN)C(=O)N[C@@H](CCCCN)C(=O)N[C@@H](CC(C)C)C(=O)N[C@H](C(=O)N[C@@H](CCCCN)C(=O)N[C@@H](CCCCN)C(=O)N[C@@H](CC(C)C)C(=O)N[C@@H](CCCCN)C(=O)N[C@@H](CCCCN)C(=O)N[C@@H](C)C(=O)N[C@@H](CC(C)C)C(=O)N[C@@H](CCCCN)C(=O)O)C(C)C)C(C)C | HaCaT | cell growth or viability, MTT |  | 32 µg/mL |  | viability | 83.9%
CNC(=O)C[C@H](Cc1ccc(F)cc1)NC(=O)[C@@H](Cc1ccc(Cl)cc1Cl)NC(=O)[C@H](N)Cc1ccccc1[N+](=O)[O-] | Huh-7-ACE2 | CellTiter-Glo |  | 0.0061 µM, 48 h, unit not given | reference: DMSO | viability | 0.934 and 0.904 and 0.962
CC[C@H](C)[C@H](NC(=O)[C@H](CCCCN)NC(=O)[C@H](CC(N)=O)NC(=O)CNC(=O)[C@@H](NC(=O)[C@H](C)NC(=O)[C@H](CCCNC(=N)N)NC(=O)[C@H](CC(C)C)NC(=O)[C@H](CCCCN)NC(=O)[C@H](CCCCN)NC(=O)[C@H](CCCCN)NC(=O)[C@H](C)NC(=O)[C@H](CCCCN)NC(=O)[C@@H]1CSSC[C@H](NC(=O)[C@H](CCCNC(=N)N)NC(=O)CN)C(=O)N[C@@H](CC(N)=O)C(=O)N[C@@H](CC(C)C)C(=O)N[C@@H](CC(C)C)C(=O)N1)C(C)C)C(=O)N[C@@H](CCCCN)C(=O)N[C@@H](CCC(=O)O)C(=O)N[C@H](C(=O)N[C@@H](CCCCN)C(=O)N[C@@H](CC(N)=O)C(=O)N[C@H](C(=O)N[C@H](C(=O)N[C@@H](Cc1ccccc1)C(=O)N[C@@H](CC(N)=O)C(=O)N[C@@H](CCCNC(=N)N)C(=O)O)C(C)C)C(C)C)[C@@H](C)CC | human erythrocytes |  |  | 20 µM, 30 min, 37 °C | reference: Triton X-100 | hemolysis | 1.23 ± 1.14%
CC[C@H](C)[C@H](NC(=O)[C@H](C)NC(=O)[C@H](CCCCN)NC(=O)[C@H](CC(C)C)NC(=O)[C@@H](N)Cc1ccccc1)C(=O)N[C@@H](CCCCN)C(=O)N[C@@H](CCCCN)C(=O)N[C@@H](Cc1ccccc1)C(=O)NCC(=O)N[C@@H](CCCCN)C(=O)N[C@@H](CCC(=O)O)C(=O)N[C@@H](Cc1ccccc1)C(=O)N[C@@H](CCCCN)C(=O)N[C@@H](CCCCN)C(=O)N[C@H](C(=O)NCC(=O)N[C@@H](C)C(=O)N[C@@H](CCCCN)C(=O)N[C@@H](CC(C)C)C(=O)N[C@@H](CCCCN)C(=O)O)[C@@H](C)CC | HeLa | cell growth or viability, MTT |  | 16 µg/mL |  | viability | 92.4%
O=C1NC2(CC2)COc2ncc(F)cc2[C@H]2COCCN2c2ccn3ncc1c3n2 |  |  | Sprague-Dawley rat, female, spleen | oral, 2.5 mg/kg/day, 4 weeks, end of treatment |  | organ-to-body weight ratio | 0.303 ± 0.075%
COC(=O)/C=C/c1ccc(O)c(OC)c1 | HaCaT | cell growth or viability, MTT |  | 24 h |  | CC50 | > 250 µM
CC(=O)NCC(=O)N[C@@H](Cc1ccccc1)C(=O)N[C@@H](Cc1ccccc1)C(=O)N[C@@H](Cc1ccc(O)cc1)C(=O)NCC(=O)N[C@@H](Cc1ccc(O)cc1)C(=O)NCC(=O)N[C@@H](CO)C(=O)N[C@@H](CO)C(=O)N[C@@H](CO)C(=O)N[C@@H](CCCNC(=N)N)C(=O)N[C@@H](CCCNC(=N)N)C(=O)N[C@@H](C)C(=O)N1CCC[C@H]1C(=O)N[C@@H](CCC(N)=O)C(=O)N[C@H](C(=O)O)[C@@H](C)O | L929 | CCK-8 |  | 1 to 400 µM, 48 h |  | cytotoxicity | not toxic
O[Si](CCCN1CCCCC1)(c1ccc(F)cc1)C1CCCCC1 (stereo not shown) | BaF3 | cell growth or viability, ATP luminescence |  | 72 h |  | IC50 | 9.77 µM
CC[C@H](C)[C@H](N)C(=O)NCC(=O)NCC(=O)N[C@@H](CCCCN)C(=O)N[C@@H](CC(N)=O)C(=O)NCC(=O)NCC(=O)N[C@@H](Cc1c[nH]c2ccccc12)C(=O)N[C@@H](Cc1c[nH]c2ccccc12)C(=O)NCC(=O)N[C@@H](CCCCN)C(=O)N[C@H](C(=O)N[C@@H](CCCNC(=N)N)C(=O)N[C@@H](Cc1c[nH]c2ccccc12)C(=O)NCC(=O)N[C@@H](CC(C)C)C(=O)N[C@@H](CC(C)C)C(=O)N[C@@H](CO)C(=O)N[C@@H](CC(C)C)C(=O)N[C@H](C(=O)N[C@@H](CCCCN)C(=O)NCC(=O)N[C@H](C(=O)N[C@@H](C)C(=O)NCC(=O)N[C@@H](CCC(N)=O)C(=O)N[C@@H](CCCNC(=N)N)C(=O)N[C@@H](CC(C)C)C(=O)N[C@@H](CC(C)C)C(=O)O)[C@@H](C)CC)[C@@H](C)CC)C(C)C | HUVEC | cytotoxicity, MTT |  | 24 h, 37 °C |  | IC50 | 8.33 µM
CCN(CCCCOc1ccc(CCC(=O)N2CCC(Cc3ccccc3)CC2)cc1OC)Cc1ccccc1 | Caco-2 monolayer |  |  | 10 µM, 120 min |  | Papp(A-B) | 7.99 ± 0.68 ×10⁻⁶ cm/s
CNC(=O)CC1CN(C(=O)c2ccc(C(F)(F)F)cn2)CCN1C(=O)c1cccnn1 (stereo not shown) | Huh-7-ACE2 | CellTiter-Glo |  | 0.0244 µM, 48 h, unit not given | reference: DMSO | viability | 1.06 and 1 and 1.02
O=c1n(CCNCCOS(=O)(=O)c2ccccc2)c(=O)n(S(=O)(=O)c2ccccc2)c(=O)n1S(=O)(=O)c1ccccc1 | HUVEC | cell growth or viability, MTT |  | 24 h |  | IC50 | 123 µg/mL

For quick reference, copied from above:
SMILES | tested on | assay | test system | setting | how to read | quantity | value
CC[C@H](C)[C@H](NC(=O)[C@@H](NC(=O)[C@H](CCCCN)NC(=O)[C@H](CCC(N)=O)NC(=O)[C@@H](NC(=O)[C@H](Cc1c[nH]c2ccccc12)NC(=O)[C@H](CCCCN)NC(=O)[C@H](CCCCN)NC(=O)[C@H](CC(C)C)NC(=O)[C@H](CCCNC(=N)N)NC(=O)[C@H](CCCCN)NC(=O)[C@@H](N)C(C)C)[C@@H](C)CC)C(C)C)C(N)=O | sheep red blood cells | 10% haemolysis |  | 1 h, 37 °C |  | minimum haemolytic concentration | > 256 µM
COC(=O)/C=C/c1ccc(O)c(O)c1 | HaCaT | MTT |  | 24 h, 10% FBS |  | subcytotoxic concentration | 50 µM
